{"data": "Assay results pooled from the literature", "cell line": "SH-SY5Y", "note": "Compare with care: the assays were run in different laboratories. ± marks the error that the study gave."}
{"SMILES": "Fc1ccc(Nc2c3c(nc4ccccc24)CCCC3)cc1", "test": "MTT", "setting": "50 µM, 1 h pretreatment, 10% FBS, together with: H2O2", "endpoint": "viability", "result": "50.5 ± 4.32%"}
{"SMILES": "CC[C@H](CO)Nc1nc(NCc2ccc(C)s2)n2ncc(C(C)C)c2n1", "test": "cell survival, MTS", "setting": "24 h", "endpoint": "lowest toxic concentration", "result": "≥ 10 µM"}
{"SMILES": "Cc1nc(-c2ccc(Cl)cc2)nc2sc3c(=O)n(CCN4CCOCC4)cnc3c12", "test": "MTT", "setting": "25 µM, together with: L-glutamate 100 µM", "endpoint": "neuroprotection", "result": "67.8 ± 0.013%"}
{"SMILES": "COc1ccnc(Nc2c3c(nc4ccccc24)CCCC3)c1", "test": "MTT", "setting": "50 µM, 1 h pretreatment, 10% FBS, together with: H2O2", "endpoint": "viability", "result": "63.2 ± 2.93%"}
{"SMILES": "C=CCn1nnc2c(NCc3ccc(C)s3)nc(N[C@H](CC)CO)nc21", "test": "MTS", "setting": "100 µM, 24 h", "endpoint": "cell survival reduction", "result": "~50%"}
{"SMILES": "COCCN1COc2c(cc3c4c(c(=O)oc3c2C)CCC4)C1", "test": "MTT", "setting": "25 µM, together with: L-glutamate 100 µM", "endpoint": "neuroprotection", "result": "20 ± 0.061%"}
{"SMILES": "Nc1ccc(CCNc2c(NC3CCN(Cc4ccccc4)CC3)c(=O)c2=O)cc1", "test": "neuroprotection, MTT", "setting": "12.5 µM, 24 h pretreatment, together with: H2O2 650 µM for 4 h", "endpoint": "cell survival", "result": "60.3%"}
{"SMILES": "O=C1C=C(OCCCn2cc(CNc3ccc4nccnc4c3)nn2)C(=O)c2ccccc21", "test": "cell growth or viability, SRB", "setting": "48 h", "endpoint": "GI50", "result": "94 µM"}
{"SMILES": "O=c1c(Nc2ccc(O)cc2)c(NC2CCN(Cc3ccccc3)CC2)c1=O", "test": "neuroprotection, MTT", "setting": "12.5 µM, 24 h pretreatment, together with: H2O2 650 µM for 4 h", "endpoint": "cell survival", "result": "70.2%"}
{"SMILES": "Cc1nc2ccc(NCc3cn(CCCCOC4=CC(=O)c5ccccc5C4=O)nn3)cc2nc1C", "test": "cell growth or viability, SRB", "setting": "48 h", "endpoint": "GI50", "result": "42.6 µM"}
{"SMILES": "Cc1ccnc(Nc2c3c(nc4ccccc24)CCC(C)C3)c1 (stereo not drawn)", "test": "MTT", "setting": "50 µM, 1 h pretreatment, 10% FBS, together with: H2O2", "endpoint": "viability", "result": "58 ± 4.35%"}
{"SMILES": "O=C1C=C(OCCCCn2cc(CNc3ccc4nccnc4c3)nn2)C(=O)c2ccccc21", "test": "cell growth or viability, SRB", "setting": "48 h", "endpoint": "GI50", "result": "93.2 µM"}
{"SMILES": "Cc1cccnc1Nc1c2c(nc3ccccc13)CCCC2", "test": "MTT", "setting": "50 µM, 1 h pretreatment, 10% FBS, together with: H2O2", "endpoint": "viability", "result": "72.5 ± 3.23%"}
{"SMILES": "Nc1ccc(Nc2c(NC3CCN(Cc4ccccc4)CC3)c(=O)c2=O)cc1", "test": "DCFH-DA flow cytometry", "setting": "12.5 µM, 24 h, together with: H2O2 850 µM for 4 h", "scale": "relative to: H2O2-treated cells", "endpoint": "intracellular ROS level", "result": "decreased"}
{"SMILES": "CC1CCc2nc3ccccc3c(Nc3ccc4ccccc4n3)c2C1 (stereo not drawn)", "test": "MTT", "setting": "50 µM, 1 h pretreatment, 10% FBS, together with: H2O2", "endpoint": "viability", "result": "59.5 ± 2.56%"}
{"SMILES": "O=C1C=C(OCCCCCCCCn2cc(CNc3ccc4nccnc4c3)nn2)C(=O)c2ccccc21", "test": "cell growth or viability, SRB", "setting": "48 h", "endpoint": "GI50", "result": "> 100 µM"}
{"SMILES": "COc1ccc(CCNc2c(NC3CCN(Cc4ccccc4)CC3)c(=O)c2=O)cc1OC", "test": "neuroprotection, MTT", "setting": "12.5 µM, 24 h pretreatment, together with: H2O2 650 µM for 4 h", "endpoint": "cell survival", "result": "57.9%"}
{"SMILES": "COc1ccc(Nc2c3c(nc4ccccc24)CCCC3)nc1", "test": "MTT", "setting": "50 µM, 1 h pretreatment, 10% FBS, together with: H2O2", "endpoint": "viability", "result": "69 ± 2.55%"}
{"note": "Some of these lines once more:"}
{"SMILES": "COc1ccnc(Nc2c3c(nc4ccccc24)CCCC3)c1", "test": "MTT", "setting": "50 µM, 1 h pretreatment, 10% FBS, together with: H2O2", "endpoint": "viability", "result": "63.2 ± 2.93%"}
{"SMILES": "CC1CCc2nc3ccccc3c(Nc3ccc4ccccc4n3)c2C1 (stereo not drawn)", "test": "MTT", "setting": "50 µM, 1 h pretreatment, 10% FBS, together with: H2O2", "endpoint": "viability", "result": "59.5 ± 2.56%"}
{"SMILES": "COc1ccc(CCNc2c(NC3CCN(Cc4ccccc4)CC3)c(=O)c2=O)cc1OC", "test": "neuroprotection, MTT", "setting": "12.5 µM, 24 h pretreatment, together with: H2O2 650 µM for 4 h", "endpoint": "cell survival", "result": "57.9%"}
